Assay results from different studies.
A part holds a random share of what one study measured. Values joined by “and” are separate records of one study, mostly repeats; a detail may differ. ± gives the spread as reported.
Sequence of UniProt P10721 (whole entry, unmodified, looked up): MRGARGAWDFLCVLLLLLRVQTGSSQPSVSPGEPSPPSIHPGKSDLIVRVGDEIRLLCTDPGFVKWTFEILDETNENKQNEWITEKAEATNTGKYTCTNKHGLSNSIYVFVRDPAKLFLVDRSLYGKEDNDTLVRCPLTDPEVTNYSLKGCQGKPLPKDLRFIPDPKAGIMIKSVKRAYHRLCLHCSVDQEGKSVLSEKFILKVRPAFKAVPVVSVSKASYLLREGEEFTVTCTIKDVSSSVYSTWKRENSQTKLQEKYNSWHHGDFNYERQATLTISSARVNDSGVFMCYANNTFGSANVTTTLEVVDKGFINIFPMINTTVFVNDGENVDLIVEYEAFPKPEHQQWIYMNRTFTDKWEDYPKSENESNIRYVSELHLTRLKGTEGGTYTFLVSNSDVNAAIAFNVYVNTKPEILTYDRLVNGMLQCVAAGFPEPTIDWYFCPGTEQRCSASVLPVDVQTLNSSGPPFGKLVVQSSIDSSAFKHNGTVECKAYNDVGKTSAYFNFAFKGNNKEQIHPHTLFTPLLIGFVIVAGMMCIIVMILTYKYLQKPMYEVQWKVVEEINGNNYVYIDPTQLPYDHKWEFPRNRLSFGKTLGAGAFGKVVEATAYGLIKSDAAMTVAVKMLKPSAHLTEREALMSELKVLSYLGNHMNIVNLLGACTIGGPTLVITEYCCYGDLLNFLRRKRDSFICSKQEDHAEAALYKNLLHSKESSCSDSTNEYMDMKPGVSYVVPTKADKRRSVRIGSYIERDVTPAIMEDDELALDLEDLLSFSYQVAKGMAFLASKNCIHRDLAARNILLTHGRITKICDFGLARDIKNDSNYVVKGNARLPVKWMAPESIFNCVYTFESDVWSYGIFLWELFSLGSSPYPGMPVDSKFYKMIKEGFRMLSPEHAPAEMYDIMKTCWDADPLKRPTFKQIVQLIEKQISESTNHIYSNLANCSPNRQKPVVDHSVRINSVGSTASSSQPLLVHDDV
Sequence of UniProt Q9NYY3 (whole entry, looked up): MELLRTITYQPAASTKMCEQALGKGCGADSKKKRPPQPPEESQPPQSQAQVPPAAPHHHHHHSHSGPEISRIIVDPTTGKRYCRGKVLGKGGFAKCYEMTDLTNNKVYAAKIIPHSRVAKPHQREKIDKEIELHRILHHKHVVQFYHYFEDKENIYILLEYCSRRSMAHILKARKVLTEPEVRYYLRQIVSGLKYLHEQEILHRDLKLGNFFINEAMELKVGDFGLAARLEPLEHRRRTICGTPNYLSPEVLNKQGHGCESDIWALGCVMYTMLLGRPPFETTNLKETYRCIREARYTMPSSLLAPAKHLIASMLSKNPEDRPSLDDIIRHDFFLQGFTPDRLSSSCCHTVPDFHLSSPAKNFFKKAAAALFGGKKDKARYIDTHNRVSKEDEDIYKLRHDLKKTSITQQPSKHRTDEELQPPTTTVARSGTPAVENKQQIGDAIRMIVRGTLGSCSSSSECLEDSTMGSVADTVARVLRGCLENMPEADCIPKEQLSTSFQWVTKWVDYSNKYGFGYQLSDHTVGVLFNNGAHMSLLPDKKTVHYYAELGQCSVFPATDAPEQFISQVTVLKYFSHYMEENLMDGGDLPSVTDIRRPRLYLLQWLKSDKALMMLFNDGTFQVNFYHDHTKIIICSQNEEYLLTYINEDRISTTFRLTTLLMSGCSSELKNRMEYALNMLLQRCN
Sequence of UniProt P50750 (whole entry, looked up): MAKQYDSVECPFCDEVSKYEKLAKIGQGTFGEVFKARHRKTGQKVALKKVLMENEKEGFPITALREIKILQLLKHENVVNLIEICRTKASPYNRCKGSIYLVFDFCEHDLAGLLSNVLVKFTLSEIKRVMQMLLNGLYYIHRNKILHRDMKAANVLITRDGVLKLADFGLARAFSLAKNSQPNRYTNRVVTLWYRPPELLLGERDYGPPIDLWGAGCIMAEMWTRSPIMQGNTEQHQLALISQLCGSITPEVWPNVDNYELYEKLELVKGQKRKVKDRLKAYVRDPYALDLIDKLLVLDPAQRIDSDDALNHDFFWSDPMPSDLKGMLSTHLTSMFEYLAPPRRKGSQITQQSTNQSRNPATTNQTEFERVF
Sequence of UniProt Q5S007 (whole entry, looked up): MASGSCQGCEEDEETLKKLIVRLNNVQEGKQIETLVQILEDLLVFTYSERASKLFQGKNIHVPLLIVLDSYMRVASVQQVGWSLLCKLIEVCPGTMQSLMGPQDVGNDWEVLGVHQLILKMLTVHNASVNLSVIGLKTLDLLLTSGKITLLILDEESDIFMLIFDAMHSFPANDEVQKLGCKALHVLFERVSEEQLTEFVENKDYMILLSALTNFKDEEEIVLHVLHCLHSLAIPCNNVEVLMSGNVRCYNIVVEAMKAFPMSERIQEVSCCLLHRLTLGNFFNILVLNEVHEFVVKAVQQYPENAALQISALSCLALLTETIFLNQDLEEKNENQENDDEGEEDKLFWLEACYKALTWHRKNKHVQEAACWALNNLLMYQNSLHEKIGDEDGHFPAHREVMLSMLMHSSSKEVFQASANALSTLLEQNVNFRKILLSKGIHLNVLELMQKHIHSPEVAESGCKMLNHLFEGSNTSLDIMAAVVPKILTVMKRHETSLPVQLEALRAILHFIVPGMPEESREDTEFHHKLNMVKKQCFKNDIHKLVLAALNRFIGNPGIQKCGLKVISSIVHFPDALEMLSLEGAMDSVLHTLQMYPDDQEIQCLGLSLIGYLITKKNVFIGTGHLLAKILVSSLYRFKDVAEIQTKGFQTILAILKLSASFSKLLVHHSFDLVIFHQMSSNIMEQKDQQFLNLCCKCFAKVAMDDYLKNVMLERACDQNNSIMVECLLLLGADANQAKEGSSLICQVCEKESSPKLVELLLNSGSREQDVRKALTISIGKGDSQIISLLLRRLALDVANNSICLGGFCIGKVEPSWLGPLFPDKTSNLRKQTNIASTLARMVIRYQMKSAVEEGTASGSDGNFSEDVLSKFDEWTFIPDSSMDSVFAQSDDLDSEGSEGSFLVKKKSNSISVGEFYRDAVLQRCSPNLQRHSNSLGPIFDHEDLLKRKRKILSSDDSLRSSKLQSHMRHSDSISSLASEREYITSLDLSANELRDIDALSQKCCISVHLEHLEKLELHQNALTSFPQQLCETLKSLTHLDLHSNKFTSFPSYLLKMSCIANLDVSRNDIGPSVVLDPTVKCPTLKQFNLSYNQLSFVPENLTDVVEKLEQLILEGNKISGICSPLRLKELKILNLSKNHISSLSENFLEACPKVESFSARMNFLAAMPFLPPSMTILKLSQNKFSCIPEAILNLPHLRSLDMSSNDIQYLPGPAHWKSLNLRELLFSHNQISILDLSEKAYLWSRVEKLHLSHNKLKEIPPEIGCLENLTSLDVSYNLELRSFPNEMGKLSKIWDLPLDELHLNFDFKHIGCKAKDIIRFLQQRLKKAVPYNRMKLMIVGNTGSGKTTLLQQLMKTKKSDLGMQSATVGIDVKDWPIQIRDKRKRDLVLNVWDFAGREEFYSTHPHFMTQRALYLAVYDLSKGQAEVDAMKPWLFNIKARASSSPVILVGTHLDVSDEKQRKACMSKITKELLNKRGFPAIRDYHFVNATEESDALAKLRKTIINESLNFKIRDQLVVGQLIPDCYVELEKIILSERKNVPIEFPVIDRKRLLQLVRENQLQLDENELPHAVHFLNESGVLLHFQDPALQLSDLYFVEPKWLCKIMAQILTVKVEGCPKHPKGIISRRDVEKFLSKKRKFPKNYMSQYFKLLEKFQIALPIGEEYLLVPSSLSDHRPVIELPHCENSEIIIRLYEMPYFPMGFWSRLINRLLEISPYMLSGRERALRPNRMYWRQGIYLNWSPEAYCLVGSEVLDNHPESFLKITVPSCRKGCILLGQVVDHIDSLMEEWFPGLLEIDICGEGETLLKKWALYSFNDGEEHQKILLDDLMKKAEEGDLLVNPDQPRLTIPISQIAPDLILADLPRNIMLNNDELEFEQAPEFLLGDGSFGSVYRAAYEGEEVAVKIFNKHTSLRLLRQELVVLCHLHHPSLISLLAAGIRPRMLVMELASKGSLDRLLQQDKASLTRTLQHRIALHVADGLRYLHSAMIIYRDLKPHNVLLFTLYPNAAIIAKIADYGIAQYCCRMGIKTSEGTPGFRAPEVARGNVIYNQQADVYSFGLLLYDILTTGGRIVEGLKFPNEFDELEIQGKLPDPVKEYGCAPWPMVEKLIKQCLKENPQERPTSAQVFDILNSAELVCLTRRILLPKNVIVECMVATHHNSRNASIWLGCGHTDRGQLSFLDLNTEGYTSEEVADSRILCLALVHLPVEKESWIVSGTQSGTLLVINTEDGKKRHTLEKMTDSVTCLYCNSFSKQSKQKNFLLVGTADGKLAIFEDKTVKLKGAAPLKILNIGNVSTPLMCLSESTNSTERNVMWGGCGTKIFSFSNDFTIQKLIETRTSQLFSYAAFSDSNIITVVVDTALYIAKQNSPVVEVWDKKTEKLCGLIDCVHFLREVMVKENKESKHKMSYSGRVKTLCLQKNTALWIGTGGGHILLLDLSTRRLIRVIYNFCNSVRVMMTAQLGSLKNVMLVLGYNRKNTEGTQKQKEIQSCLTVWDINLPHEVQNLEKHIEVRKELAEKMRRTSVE
Sequence of UniProt P36507 (whole entry, looked up): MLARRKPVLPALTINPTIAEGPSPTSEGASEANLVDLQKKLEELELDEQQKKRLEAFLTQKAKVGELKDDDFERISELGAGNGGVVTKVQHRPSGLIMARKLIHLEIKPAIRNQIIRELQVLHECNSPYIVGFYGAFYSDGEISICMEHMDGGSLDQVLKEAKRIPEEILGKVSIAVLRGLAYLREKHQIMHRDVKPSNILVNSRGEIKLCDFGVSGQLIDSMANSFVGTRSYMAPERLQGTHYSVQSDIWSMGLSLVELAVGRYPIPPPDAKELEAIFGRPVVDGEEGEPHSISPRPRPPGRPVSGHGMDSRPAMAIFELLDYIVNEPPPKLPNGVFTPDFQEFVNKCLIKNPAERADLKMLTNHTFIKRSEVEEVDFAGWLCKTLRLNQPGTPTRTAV

Sample 1
Compound: O=C(c1cc2cc(O)ccc2[nH]1)c1cc2cc(O)ccc2[nH]1
Read-out: enzyme activity
Action: inhibitor
Concentration: 0.5 µM
Reference: control
For Serine/threonine-protein kinase Chk1 (CHEK1, Homo sapiens, UniProt O14757): remaining activity read 82.5%.
The remaining activity was 46.8% (MAP kinase-interacting serine/threonine-protein kinase 2 (MKNK2, Homo sapiens, UniProt Q9HBH9)).
Serine/threonine-protein kinase Nek4 (NEK4, Homo sapiens, UniProt P51957) — remaining activity: 87.6%.
The remaining activity was 76.6% (Cyclin-dependent kinase 9, with cyclin T1 (CDK9, Homo sapiens, UniProt P50750)).
It gave 85.9% for remaining activity (Interleukin-1 receptor-associated kinase 4 (IRAK4, Homo sapiens, UniProt Q9NWZ3)).
The remaining activity was 86.8% (Tyrosine-protein kinase BTK (BTK, Homo sapiens, UniProt Q06187)).
It gave 96.3% for remaining activity (Casein kinase I isoform alpha (CSNK1A1, Homo sapiens, UniProt P48729)).
Casein kinase II subunit alpha (CSNK2A1, Homo sapiens, UniProt P68400) — remaining activity: 88.7%.
It gave 96.6% for remaining activity (Serine/threonine-protein kinase WNK2 (WNK2, Homo sapiens, UniProt Q9Y3S1)).
It gave 100% for remaining activity (Ephrin type-A receptor 5 (EPHA5, Homo sapiens, UniProt P54756)).
For Tyrosine-protein kinase Lyn (LYN, Homo sapiens, UniProt P07948): remaining activity read 34.9%.
For Leucine-rich repeat serine/threonine-protein kinase 2 (LRRK2, Homo sapiens, UniProt Q5S007): remaining activity read 87.2%.
The remaining activity was 89.7% (Protein kinase C delta type (PRKCD, Homo sapiens, UniProt Q05655)).
The remaining activity was 97.9% (Mitogen-activated protein kinase 12 (MAPK12, Homo sapiens, UniProt P53778)).
Dual specificity mitogen-activated protein kinase kinase 6 (MAP2K6, Homo sapiens, UniProt P52564) — remaining activity: 93.6%.
It gave 102% for remaining activity (RAC-gamma serine/threonine-protein kinase (AKT3, Homo sapiens, UniProt Q9Y243)).
The remaining activity was 98.4% (Protein kinase C iota type (PRKCI, Homo sapiens, UniProt P41743)).
For Serine/threonine-protein kinase PLK2 (PLK2, Homo sapiens, UniProt Q9NYY3): remaining activity read 102%.
The remaining activity was 91.7% (Mitogen-activated protein kinase kinase kinase 10 (MAP3K10, Homo sapiens, UniProt Q02779)).
For Mitogen-activated protein kinase kinase kinase kinase 2 (MAP4K2, Homo sapiens, UniProt Q12851): remaining activity read 67.1%.
The remaining activity was 108% (Mitogen-activated protein kinase 13 (MAPK13, Homo sapiens, UniProt O15264)).
It gave 90% for remaining activity (cGMP-dependent protein kinase 1 (PRKG1, Homo sapiens, UniProt Q13976)).

Sample 2
Structure (SMILES): COc1cc(C(=O)N2CCC(N3CCN(C)CC3)CC2)ccc1Nc1ncc2c(n1)N(C)c1ccccc1C(=O)N2C
Read-out: kinase activity
For SGK1; 10 µM: remaining activity read 89 ± 2%.
It gave 100 ± 12% for remaining activity (MARK3; 1 µM).
YES1; 10 µM — remaining activity: 82 ± 9%.
PRK2; 10 µM — remaining activity: 80 ± 9%.
The remaining activity was 62 ± 6% (MARK2; 1 µM).
It gave 74 ± 8% for remaining activity (PKD1; 1 µM).
EPH-A4; 1 µM — remaining activity: 88 ± 2%.
ROCK2; 1 µM — remaining activity: 84 ± 1%.
For MLK1; 10 µM: remaining activity read 96 ± 1%.
For PAK4; 1 µM: remaining activity read 94 ± 16%.

Sample 3
SMILES: Cc1cc2c(C(N)=O)c(N)n(-c3c(C)ccc(O)c3C)c2nc1C
HCC1569; automated capillary immunoblot, refers to: CDK1 phospho-Thr14; 0.05 nM — inhibition: 5.56%.
It gave 95.5% for inhibition (HCC1569; cell proliferation; 3333.33 nM).
For HCC1806; cell proliferation; 10000 nM: inhibition read 99.9%.
It gave -1.55% and -10.5% and -2.66% for inhibition (LN-229; cell proliferation; 4.572 nM).
NCI-H1568; cell proliferation; 4.572 nM — inhibition: 4.49% and 5.91%.
HuCCT-1; cell proliferation; 13.72 nM — inhibition: 0.24% and 1.77% and 2.98%.
The inhibition was 95.5% (HCC1569; automated capillary immunoblot, refers to: CDK1 phospho-Thr14; 1000 nM).
It gave 16.8% for inhibition (HCC1569; automated immunoblotting, refers to: CDK1 phospho-Thr14; concentration not given, 8 h after washout).
MKN-1; cell proliferation; 1111.11 nM — inhibition: 98.6%.
The inhibition was 7.51% and 9.88% (NCI-H1568; cell proliferation; 123.5 nM).
The inhibition was -18.4% and -23.5% and -17.4% (NCI-H1648; cell proliferation; 123.5 nM).
For KLE; cell proliferation; 1.524 nM: inhibition read 0.45% and -1.56% and -1.67%.
It gave 100% for inhibition (RKO; cell proliferation; 10000 nM).

Sample 4
Compound: O=C(NC[C@@H]1[C@H]2CN(C(=O)OCc3cc(C(F)(F)F)cc(C(F)(F)F)c3)C[C@@H]12)c1ccc2[nH]nnc2c1
Read-out: cell-free assay
Method: competition with immobilised ligand
Concentration: 1 µM
Mast/stem cell growth factor receptor Kit (KIT, Homo sapiens, UniProt P10721, T670I/V559D) — remaining binding: 100%.
The remaining binding was 89% (Serine/threonine-protein kinase PLK2 (PLK2, Homo sapiens, UniProt Q9NYY3)).
The remaining binding was 86% (Ribosomal protein S6 kinase alpha-4, C-terminal kinase domain (RPS6KA4, Homo sapiens, UniProt O75676)).
For Serine/threonine-protein kinase Sgk3 (SGK3, Homo sapiens, UniProt Q96BR1): remaining binding read 84%.
For Tyrosine-protein kinase ABL1, phosphorylated (ABL1, Homo sapiens, UniProt P00519, Q252H): remaining binding read 100%.
Mast/stem cell growth factor receptor Kit (KIT, Homo sapiens, UniProt P10721, A829P) — remaining binding: 100%.
The remaining binding was 100% (Serine/threonine-protein kinase 4 (STK4, Homo sapiens, UniProt Q13043)).
Uncharacterized serine/threonine-protein kinase SBK3 (SBK3, Homo sapiens, UniProt P0C264) — remaining binding: 100%.
The remaining binding was 100% (Cyclin-dependent kinase-like 5 (CDKL5, Homo sapiens, UniProt O76039)).
It gave 100% for remaining binding (Homeodomain-interacting protein kinase 2 (HIPK2, Homo sapiens, UniProt Q9H2X6)).
Serine/threonine-protein kinase BRSK1 (BRSK1, Homo sapiens, UniProt Q8TDC3) — remaining binding: 89%.
The remaining binding was 84% (Dual specificity mitogen-activated protein kinase kinase 2 (MAP2K2, Homo sapiens, UniProt P36507)).
For Fibroblast growth factor receptor 4 (FGFR4, Homo sapiens, UniProt P22455): remaining binding read 82%.
Receptor-interacting serine/threonine-protein kinase 1 (RIPK1, Homo sapiens, UniProt Q13546) — remaining binding: 89%.

Repeated from above (sample 2):
For SGK1; 10 µM: remaining activity read 89 ± 2%.
It gave 100 ± 12% for remaining activity (MARK3; 1 µM).
YES1; 10 µM — remaining activity: 82 ± 9%.
PRK2; 10 µM — remaining activity: 80 ± 9%.
The remaining activity was 62 ± 6% (MARK2; 1 µM).
It gave 74 ± 8% for remaining activity (PKD1; 1 µM).
EPH-A4; 1 µM — remaining activity: 88 ± 2%.
ROCK2; 1 µM — remaining activity: 84 ± 1%.
For MLK1; 10 µM: remaining activity read 96 ± 1%.
For PAK4; 1 µM: remaining activity read 94 ± 16%.
